Assay results gathered from unrelated publications.
Compare with care: the assays were run in different laboratories. Values joined by “and” are separate records of one study, mostly repeats; a detail may differ. Numbers after ± are the reported error.
Chain of UniProt Q02880 (whole entry, looked up): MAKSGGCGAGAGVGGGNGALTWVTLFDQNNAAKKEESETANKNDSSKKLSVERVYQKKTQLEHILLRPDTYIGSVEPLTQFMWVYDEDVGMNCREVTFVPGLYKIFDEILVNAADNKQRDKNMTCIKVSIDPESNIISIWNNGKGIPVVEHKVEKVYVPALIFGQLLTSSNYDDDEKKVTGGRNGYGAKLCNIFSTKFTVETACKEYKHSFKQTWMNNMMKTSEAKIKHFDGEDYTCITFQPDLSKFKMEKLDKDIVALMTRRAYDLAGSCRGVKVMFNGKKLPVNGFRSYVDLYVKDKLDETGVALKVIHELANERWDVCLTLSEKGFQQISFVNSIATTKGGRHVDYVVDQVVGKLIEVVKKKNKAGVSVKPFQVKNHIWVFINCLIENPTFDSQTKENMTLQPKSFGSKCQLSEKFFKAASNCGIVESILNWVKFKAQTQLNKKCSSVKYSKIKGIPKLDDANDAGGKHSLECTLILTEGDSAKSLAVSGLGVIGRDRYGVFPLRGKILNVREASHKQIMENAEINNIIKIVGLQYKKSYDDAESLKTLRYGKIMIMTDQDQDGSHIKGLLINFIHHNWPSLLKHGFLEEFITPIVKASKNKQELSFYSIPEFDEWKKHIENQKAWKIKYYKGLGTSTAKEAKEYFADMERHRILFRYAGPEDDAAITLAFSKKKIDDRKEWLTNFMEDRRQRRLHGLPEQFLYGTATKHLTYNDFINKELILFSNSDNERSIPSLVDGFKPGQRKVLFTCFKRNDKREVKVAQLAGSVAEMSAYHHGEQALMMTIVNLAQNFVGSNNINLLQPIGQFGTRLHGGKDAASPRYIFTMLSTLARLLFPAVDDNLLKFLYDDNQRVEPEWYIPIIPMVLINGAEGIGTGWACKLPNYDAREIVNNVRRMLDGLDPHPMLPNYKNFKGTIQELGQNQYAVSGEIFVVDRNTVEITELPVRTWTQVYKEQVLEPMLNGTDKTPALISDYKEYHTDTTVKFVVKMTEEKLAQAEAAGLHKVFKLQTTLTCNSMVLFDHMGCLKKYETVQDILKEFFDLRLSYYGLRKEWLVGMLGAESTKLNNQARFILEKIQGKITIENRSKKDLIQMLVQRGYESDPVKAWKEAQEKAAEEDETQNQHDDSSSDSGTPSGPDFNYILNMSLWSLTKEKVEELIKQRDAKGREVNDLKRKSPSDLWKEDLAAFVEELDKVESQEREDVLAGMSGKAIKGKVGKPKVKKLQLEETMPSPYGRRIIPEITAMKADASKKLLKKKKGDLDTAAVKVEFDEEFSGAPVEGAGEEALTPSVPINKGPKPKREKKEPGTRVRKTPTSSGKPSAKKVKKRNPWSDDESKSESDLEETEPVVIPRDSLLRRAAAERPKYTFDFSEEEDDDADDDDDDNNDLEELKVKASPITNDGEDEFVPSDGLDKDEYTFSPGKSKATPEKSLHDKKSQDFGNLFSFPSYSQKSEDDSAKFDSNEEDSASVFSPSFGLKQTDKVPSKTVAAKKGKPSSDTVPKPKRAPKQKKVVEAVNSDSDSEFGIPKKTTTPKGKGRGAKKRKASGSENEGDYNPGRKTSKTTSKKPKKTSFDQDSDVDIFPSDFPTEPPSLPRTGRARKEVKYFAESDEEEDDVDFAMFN

Cc1cccc(Nc2ccccc2C(=O)O)c1C
remaining activity (vericiguat glucuronidation, inhibitor, item: metabolite M-1 formation; human kidney microsomes; 10.0 µM; relative to: no inhibitor): 73%

CO/N=C1\C[C@]2(C[C@@H]3C[C@@H](C/C=C(\C)C[C@@H](C)/C=C/C=C4\CO[C@@H]5[C@H](O)C(C)=C[C@@H](C(=O)O3)[C@]45O)O2)O[C@H](/C(C)=C/C(C)C)[C@H]1C
activity call (antagonist, qPCR in vivo, item: Shp and Bsep mRNA; Oryzias latipes; dose not given): toxic

Fc1ccccc1Cc1nc(-c2nc(C(F)(F)F)n[nH]2)cn2ccnc12
delayed maze test moves (healthy volunteers; 10 mg, single ascending dose, unit not given; relative to: placebo): 0.3

CO/N=C(\C(=O)N[C@@H]1C(=O)N2C(C(=O)O)=C(COC(C)=O)CS[C@H]12)c1csc(N)n1
MIC (Salmonella enterica serovar München; broth microdilution; clinical isolate RKI-No 419/14): > 16 µg/mL

COC(=O)Nc1c(N)nc(-c2nn(Cc3ccccc3F)c3ncc(F)cc23)nc1N
seated HR maximum increase (healthy white men; dose not given, day 15, 360 h, LS mean difference, together with: sildenafil 100 mg; relative to: placebo): 1.08 bpm

N#CCC1CCN(c2nc(Nc3ccc(N4CCC(O)CC4)cc3)c3c(=O)[nH]ncc3n2)CC1
serum level change (Olink multiplex, item: CD163; human, serum; 80 mg, day 29, unit not given; relative to: placebo): -1.5

COc1cc2c(c(OC)c1OC)-c1ccc(OC)c(=O)cc1[C@@H](NC(C)=O)CC2
activity call (antagonist, qPCR in vivo, item: Shp and Bsep mRNA; Oryzias latipes; dose not given): toxic

COc1cc([C@@H]2c3cc4c(cc3[C@@H](O[C@@H]3O[C@@H]5CO[C@@H](C)O[C@H]5[C@H](O)[C@H]3O)[C@H]3COC(=O)[C@H]23)OCO4)cc(OC)c1O
mean decatenated DNA (TOP2B (Homo sapiens, UniProt Q02880); decatenation; 250 µM): 39.9% and 40.3%

COC(=O)N[C@H](C(=O)N[C@@H](Cc1ccccc1)[C@@H](O)CN(Cc1ccc(-c2ccccn2)cc1)NC(=O)[C@@H](NC(=O)OC)C(C)(C)C)C(C)(C)C
remaining activity (vericiguat glucuronidation, inhibitor, item: metabolite M-1 formation; human kidney microsomes; 5.0 µM; relative to: no inhibitor): 94.8%

CC1COc2ccccc2N1C(=O)C(Cl)Cl (stereo not shown)
remaining compound (carboxylesterase; male rhesus monkey liver microsomes; 5 µM, 30 min, pH 7.4, without NADPH): 63 ± 1%

CNC(=O)c1ccccc1Nc1nc(Nc2ccc(N3CCNCC3)cc2)ncc1Cl
number of kinases displaced (competition with compound beads; A-375 cell lysate; binding reduced to 60% at 30 µM): 157

hecogenin
remaining activity (vericiguat glucuronidation, inhibitor, item: metabolite M-1; human intestinal microsomes; 10.0 µM; relative to: control): 96.6%

OC[C@H]1O[C@@H](O[C@@H]2[C@@H](O)[C@H](O[C@@H]3[C@@H](O)[C@H](O[C@H]4[C@H](O)[C@@H](CO)OC(O)[C@@H]4O)O[C@H](CO)[C@H]3O)O[C@H](CO)[C@H]2O)[C@H](O)[C@@H](O)[C@@H]1O (stereo partly shown)
-TΔS (Bacteroides thetaiotaomicron; binding, ITC; pH 7.0, 25 °C, middle domain): -13.9 kcal/mol

Some of these lines once more:
COC(=O)Nc1c(N)nc(-c2nn(Cc3ccccc3F)c3ncc(F)cc23)nc1N
seated HR maximum increase (healthy white men; dose not given, day 15, 360 h, LS mean difference, together with: sildenafil 100 mg; relative to: placebo): 1.08 bpm

COc1cc([C@@H]2c3cc4c(cc3[C@@H](O[C@@H]3O[C@@H]5CO[C@@H](C)O[C@H]5[C@H](O)[C@H]3O)[C@H]3COC(=O)[C@H]23)OCO4)cc(OC)c1O
mean decatenated DNA (TOP2B (Homo sapiens, UniProt Q02880); decatenation; 250 µM): 39.9% and 40.3%
